Measurements pooled from the literature.
Lines come from different studies, so protocols differ. Numbers after ± are the reported error.
CHRM1: Muscarinic acetylcholine receptor M1 (CHRM1, Homo sapiens, UniProt P11229)
UniProt P11229, sequence (whole entry, looked up): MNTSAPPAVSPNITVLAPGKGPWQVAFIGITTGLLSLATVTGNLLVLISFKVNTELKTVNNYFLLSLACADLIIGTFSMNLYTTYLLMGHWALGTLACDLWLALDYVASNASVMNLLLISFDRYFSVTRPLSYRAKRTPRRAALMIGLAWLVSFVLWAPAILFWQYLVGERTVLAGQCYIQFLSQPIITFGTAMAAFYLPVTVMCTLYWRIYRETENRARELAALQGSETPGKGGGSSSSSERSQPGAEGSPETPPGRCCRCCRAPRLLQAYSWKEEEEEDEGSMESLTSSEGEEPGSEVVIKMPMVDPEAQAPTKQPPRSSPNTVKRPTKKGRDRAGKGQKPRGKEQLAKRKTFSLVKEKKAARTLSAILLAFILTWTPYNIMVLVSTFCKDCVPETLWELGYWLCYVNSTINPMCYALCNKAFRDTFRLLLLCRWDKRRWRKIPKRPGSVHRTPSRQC
Drd2: D(2) dopamine receptor (Drd2, Rattus norvegicus, UniProt P61169)
UniProt P61169, sequence (whole entry, looked up): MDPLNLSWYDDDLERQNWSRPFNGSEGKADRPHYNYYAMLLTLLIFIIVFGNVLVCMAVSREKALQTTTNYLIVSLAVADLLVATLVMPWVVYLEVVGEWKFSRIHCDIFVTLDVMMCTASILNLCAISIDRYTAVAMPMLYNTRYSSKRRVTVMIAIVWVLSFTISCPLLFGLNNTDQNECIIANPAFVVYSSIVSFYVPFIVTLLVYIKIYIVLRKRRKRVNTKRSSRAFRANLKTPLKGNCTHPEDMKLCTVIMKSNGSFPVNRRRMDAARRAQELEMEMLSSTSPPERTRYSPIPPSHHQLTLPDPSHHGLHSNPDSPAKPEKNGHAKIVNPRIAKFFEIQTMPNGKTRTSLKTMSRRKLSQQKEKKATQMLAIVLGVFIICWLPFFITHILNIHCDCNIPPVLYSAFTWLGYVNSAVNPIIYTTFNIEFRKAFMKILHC
CASP3: Caspase-3 (CASP3, Homo sapiens, UniProt P42574)
UniProt P42574, sequence (whole entry, looked up): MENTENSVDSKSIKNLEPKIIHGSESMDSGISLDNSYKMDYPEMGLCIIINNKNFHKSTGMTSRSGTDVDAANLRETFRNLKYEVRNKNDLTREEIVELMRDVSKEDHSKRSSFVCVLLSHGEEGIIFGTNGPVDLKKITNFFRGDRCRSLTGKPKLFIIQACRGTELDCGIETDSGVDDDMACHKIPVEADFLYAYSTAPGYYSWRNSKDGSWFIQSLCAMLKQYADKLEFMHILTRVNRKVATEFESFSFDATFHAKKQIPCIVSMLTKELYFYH
SLC10A2: Ileal sodium/bile acid cotransporter (SLC10A2, Homo sapiens, UniProt Q12908)
UniProt Q12908, sequence (whole entry, looked up): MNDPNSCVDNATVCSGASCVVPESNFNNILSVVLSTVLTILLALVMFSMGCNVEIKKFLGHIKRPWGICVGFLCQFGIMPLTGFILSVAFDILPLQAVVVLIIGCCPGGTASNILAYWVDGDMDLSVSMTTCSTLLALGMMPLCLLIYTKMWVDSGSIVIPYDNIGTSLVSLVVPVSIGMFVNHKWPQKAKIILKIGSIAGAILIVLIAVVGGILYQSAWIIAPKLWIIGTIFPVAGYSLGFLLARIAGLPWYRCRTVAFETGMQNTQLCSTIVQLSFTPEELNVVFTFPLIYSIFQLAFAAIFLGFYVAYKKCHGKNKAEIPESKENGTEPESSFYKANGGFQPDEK
GBA3: Cytosolic beta-glucosidase (GBA3, Homo sapiens, UniProt Q9H227)
UniProt Q9H227, sequence (whole entry, looked up): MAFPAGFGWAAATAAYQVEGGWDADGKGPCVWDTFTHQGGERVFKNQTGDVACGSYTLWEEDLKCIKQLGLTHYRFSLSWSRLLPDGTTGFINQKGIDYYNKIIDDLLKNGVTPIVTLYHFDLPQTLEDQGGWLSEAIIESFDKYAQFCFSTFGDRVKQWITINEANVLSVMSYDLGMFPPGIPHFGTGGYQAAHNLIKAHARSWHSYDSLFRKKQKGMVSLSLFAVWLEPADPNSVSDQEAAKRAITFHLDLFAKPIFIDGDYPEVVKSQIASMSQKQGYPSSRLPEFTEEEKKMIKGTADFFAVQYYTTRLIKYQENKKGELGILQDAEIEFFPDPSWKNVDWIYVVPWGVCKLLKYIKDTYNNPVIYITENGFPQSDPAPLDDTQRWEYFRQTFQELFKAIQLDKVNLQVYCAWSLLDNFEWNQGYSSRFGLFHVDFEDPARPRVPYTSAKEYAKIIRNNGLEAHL
CHRM3: Muscarinic acetylcholine receptor M3 (CHRM3, Homo sapiens, UniProt P20309)
UniProt P20309, sequence (whole entry, looked up): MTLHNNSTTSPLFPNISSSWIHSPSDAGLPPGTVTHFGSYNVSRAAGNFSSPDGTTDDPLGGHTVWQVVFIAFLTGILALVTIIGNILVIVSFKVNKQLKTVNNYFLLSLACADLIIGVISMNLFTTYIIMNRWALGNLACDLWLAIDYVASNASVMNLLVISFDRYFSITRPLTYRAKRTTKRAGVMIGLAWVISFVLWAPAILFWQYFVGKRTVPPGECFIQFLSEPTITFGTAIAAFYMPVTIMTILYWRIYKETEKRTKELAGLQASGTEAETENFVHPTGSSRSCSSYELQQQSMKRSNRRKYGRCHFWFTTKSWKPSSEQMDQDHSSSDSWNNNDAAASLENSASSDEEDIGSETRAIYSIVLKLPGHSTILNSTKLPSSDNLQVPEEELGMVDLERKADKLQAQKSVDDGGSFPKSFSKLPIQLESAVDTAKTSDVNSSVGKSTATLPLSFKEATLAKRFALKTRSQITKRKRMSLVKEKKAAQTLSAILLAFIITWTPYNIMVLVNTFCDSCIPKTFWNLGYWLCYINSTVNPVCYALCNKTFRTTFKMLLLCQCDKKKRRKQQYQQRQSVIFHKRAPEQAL
Hypoxanthine-guanine phosphoribosyltransferase: Hypoxanthine-guanine phosphoribosyltransferase (Trypanosoma cruzi, UniProt Q4DGA3)
UniProt Q00804, sequence (whole entry, looked up): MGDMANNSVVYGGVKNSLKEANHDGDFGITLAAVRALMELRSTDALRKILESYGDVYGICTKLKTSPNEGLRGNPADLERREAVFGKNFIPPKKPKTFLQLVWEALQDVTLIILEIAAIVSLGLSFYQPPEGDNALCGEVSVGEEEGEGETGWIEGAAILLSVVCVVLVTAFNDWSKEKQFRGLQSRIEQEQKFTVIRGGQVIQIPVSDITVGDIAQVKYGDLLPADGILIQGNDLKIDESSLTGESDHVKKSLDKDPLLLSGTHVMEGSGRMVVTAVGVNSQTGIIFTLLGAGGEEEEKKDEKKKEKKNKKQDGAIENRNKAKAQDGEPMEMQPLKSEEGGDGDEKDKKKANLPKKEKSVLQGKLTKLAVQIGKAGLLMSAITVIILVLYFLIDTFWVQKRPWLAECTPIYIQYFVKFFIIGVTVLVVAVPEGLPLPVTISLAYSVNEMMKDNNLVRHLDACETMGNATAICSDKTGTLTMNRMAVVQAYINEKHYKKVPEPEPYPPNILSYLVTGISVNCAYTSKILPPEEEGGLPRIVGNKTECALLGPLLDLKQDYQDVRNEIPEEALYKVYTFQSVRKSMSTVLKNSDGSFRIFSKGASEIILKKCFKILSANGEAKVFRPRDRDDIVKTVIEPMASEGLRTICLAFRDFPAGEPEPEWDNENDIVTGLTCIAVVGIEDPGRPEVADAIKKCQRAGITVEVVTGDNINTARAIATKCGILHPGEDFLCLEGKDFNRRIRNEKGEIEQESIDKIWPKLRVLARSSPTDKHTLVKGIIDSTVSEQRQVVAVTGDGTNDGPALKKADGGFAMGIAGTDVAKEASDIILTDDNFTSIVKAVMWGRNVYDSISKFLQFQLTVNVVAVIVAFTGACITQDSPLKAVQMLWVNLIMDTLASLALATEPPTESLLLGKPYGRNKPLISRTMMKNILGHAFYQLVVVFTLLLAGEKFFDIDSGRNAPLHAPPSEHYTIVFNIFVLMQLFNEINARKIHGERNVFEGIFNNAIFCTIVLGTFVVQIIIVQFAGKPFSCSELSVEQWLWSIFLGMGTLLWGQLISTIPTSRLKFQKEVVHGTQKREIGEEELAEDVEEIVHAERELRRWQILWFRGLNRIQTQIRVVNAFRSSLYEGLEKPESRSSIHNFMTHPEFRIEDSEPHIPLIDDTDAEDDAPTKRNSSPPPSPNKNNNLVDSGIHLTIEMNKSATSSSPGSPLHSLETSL
UniProt P18031, sequence (whole entry, looked up): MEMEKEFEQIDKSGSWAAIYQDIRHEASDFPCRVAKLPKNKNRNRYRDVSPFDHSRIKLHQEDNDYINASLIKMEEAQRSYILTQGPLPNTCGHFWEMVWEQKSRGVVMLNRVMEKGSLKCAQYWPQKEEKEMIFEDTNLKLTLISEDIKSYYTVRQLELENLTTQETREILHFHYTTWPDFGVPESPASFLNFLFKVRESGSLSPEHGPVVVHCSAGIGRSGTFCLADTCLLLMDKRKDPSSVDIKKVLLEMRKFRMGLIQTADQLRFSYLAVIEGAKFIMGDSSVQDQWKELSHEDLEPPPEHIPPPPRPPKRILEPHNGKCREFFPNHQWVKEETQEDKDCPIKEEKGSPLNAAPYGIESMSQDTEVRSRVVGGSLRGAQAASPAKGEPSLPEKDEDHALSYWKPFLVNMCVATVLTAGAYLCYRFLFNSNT
UniProt P30542, sequence (whole entry, looked up): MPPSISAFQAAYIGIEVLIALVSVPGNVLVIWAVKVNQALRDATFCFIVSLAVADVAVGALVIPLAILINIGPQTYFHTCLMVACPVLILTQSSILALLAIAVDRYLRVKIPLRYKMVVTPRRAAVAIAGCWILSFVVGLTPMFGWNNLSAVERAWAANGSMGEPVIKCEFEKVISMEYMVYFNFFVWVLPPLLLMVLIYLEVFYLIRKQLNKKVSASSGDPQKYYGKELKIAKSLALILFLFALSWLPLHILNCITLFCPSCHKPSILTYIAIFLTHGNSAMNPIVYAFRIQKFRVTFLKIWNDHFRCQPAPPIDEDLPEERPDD
UniProt P16442, sequence (whole entry, unmodified, looked up): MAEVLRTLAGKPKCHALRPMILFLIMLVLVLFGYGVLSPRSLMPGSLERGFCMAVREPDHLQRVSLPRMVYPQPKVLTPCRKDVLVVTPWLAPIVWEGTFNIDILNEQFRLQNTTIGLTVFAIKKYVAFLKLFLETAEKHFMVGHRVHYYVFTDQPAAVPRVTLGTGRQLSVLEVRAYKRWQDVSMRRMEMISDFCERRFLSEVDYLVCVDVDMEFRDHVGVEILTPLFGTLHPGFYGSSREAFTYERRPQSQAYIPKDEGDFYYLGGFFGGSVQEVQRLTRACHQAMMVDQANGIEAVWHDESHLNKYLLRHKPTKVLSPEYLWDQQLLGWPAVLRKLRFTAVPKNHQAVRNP

Structure (SMILES) | target | assay | system | setting | Ki [nM]
COc1ccc(CCCN[C@H]2CCC[C@@H]2CN[C@@H]2CCC[C@H]2CNCCCCN[C@H]2CCC[C@@H]2CN)cc1 | Amine oxidase [flavin-containing] B (MAOB, Homo sapiens, UniProt P27338) | enzyme activity, inhibitor | – | – | > 500000
CCC(=O)NC1CN(CCCCC2CCN(CC(=O)N3c4ccccc4NC(=O)c4ccccc43)CC2)CCN(CCCOc2nsnc2C2=CCCN(C)C2)C1 (stereo not shown) | CHRM1 | ligand displacement, radioligand | – | – | 4.07
CC1(C)C=Cc2c(cc(O)c3c(=O)cc(-c4ccc(O)cc4O)oc23)O1 | Tyrosine-protein phosphatase non-receptor type 1 (PTPN1, Homo sapiens, UniProt P18031) | Dixon plot | – | – | 580
Fc1cc(CN2CCOCC2)ccc1OCCCN1CCN(c2cccc3sccc23)CC1 | Drd2 | cell-free assay, radioligand | – | – | 78.5
CC(=O)N[C@H](C(=O)N[C@@H](C)C(=O)N[C@H](C=O)CC(=O)O)C(C)C | CASP3 | enzyme activity, inhibitor, fluorescence | – | pH 7 | > 100000
C[C@H](CCC(=O)O)[C@H]1CC[C@H]2[C@@H]3[C@H](O)C[C@H]4C[C@H](OC(=O)CCC(=O)O)CC[C@]4(C)[C@H]3CC[C@]12C | SLC10A2 | transporter uptake, inhibitor, radiometric | – | – | 73900
CC(=O)N[C@H](C(=O)N[C@H](C(=O)N[C@@H](CCCN)C(=O)N[C@H](C=O)CC(=O)O)C(C)C)[C@@H](C)O | CASP3 | enzyme activity, inhibitor, fluorescence | – | pH 7 | 17000
CC(C)COCCCCCN1C[C@H](O)[C@@H](O)[C@H](O)[C@H]1CO | GBA3 | enzyme activity, inhibitor | – | – | 128000
CC(CCC(=O)NC(CCC(=O)Nc1ccccc1O)C(=O)O)C1CCC2C3C(O)CC4CC(O)CCC4(C)C3CCC12C (stereo not shown) | SLC10A2 | taurocholate uptake, inhibitor | ASBT-MDCK | 10 min, together with: taurocholate 2.5 µM | 3540
CC[C@H](C)[C@H](NC(C)=O)C(=O)N[C@H](C(=O)N[C@H](C(=O)N[C@H](CCCCN)C(=O)N[C@H](C=O)CC(=O)O)C(C)C)[C@@H](C)O | CASP3 | enzyme activity, inhibitor, fluorescence | – | pH 7 | > 100000
CNC(=O)c1ccc(-c2cccc3c2OC(CN)C3)cc1 (stereo not shown) | Beta-2 adrenergic receptor (ADRB2, Homo sapiens, UniProt P07550) | binding, fluorescent ligand displacement | SNAP-tagged receptor HEK membranes | together with: 50 nM propranolol-green | 1260
O=C(OC1CCN(CCOCCOCCN2CCC(OC(=O)C(c3ccccc3)c3ccccc3)CC2)CC1)C(c1ccccc1)c1ccccc1 | CHRM1 | ligand displacement, radioligand | – | – | 257
CC(=O)N[C@H](C(=O)N[C@H](C(=O)N[C@@H](CCCCN)C(=O)N[C@H](C=O)CC(=O)O)C(C)C)[C@@H](C)O | CASP3 | enzyme activity, inhibitor, fluorescence | – | pH 7 | 11200
CN1CCN(CCCCC2CCN(CC(=O)N3c4ccccc4NC(=O)c4ccccc43)CC2)CC(N)C1 (stereo not shown) | CHRM3 | ligand displacement, radioligand | – | – | 562
CC(=O)N[C@@H](CC(=O)O)C(=O)N[C@@H](CCCNC(=N)N)C(=O)N[C@H](C(=O)N[C@H](C=O)CC(=O)O)[C@@H](C)O | CASP3 | enzyme activity, inhibitor, fluorescence | – | pH 7 | 81.3
COc1cc(I)c(Cc2cc(OC)c(OC)cc2CC(=O)OC(C)(C)C)cc1OC | Melatonin receptor type 1A (MTNR1A, Homo sapiens, UniProt P48039) | ligand displacement, radioligand | – | cell membranes | 537
CC(C)=CCc1c(O)c(CC=C(C)C)c2occ(-c3ccc(O)c(O)c3)c(=O)c2c1O | Beta-glucuronidase (uidA, Escherichia coli, UniProt P05804) | enzyme activity, inhibitor | – | – | 1410
CC(C)C[C@H](NC(=O)[C@H](CC(C)C)NC(=O)[C@H](Cc1c[nH]cn1)NC(=O)[C@H](CC(C)C)NC(=O)[C@@H](NC(=O)[C@H](CCC(=O)O)NC(=O)[C@H](CO)NC(=O)[C@H](Cc1c[nH]c2ccccc12)NC(=O)[C@H](C)NC(=O)[C@@H](N)[C@@H](C)O)C(C)C)C(=O)N[C@@H](CO)C(=O)N[C@@H](CCCNC(=N)N)C(=O)NCC(=O)NCC(=O)NCC(=O)N[C@@H](CO)C(=O)N[C@@H](CCCCN)C(N)=O | Plasma membrane calcium-transporting ATPase 1 (ATP2B1, Oryctolagus cuniculus, UniProt Q00804) | enzyme activity, inhibitor | duodenal mucosal plasma membranes | – | 105000 ± 11000
CC[C@H](C)[C@H](NC(C)=O)C(=O)N[C@H](C(=O)N[C@H](C(=O)N[C@@H](CN)C(=O)N[C@H](C=O)CC(=O)O)C(C)C)[C@@H](C)O | CASP3 | enzyme activity, inhibitor, fluorescence | – | pH 7 | 4790
OC[C@H]1[C@@H](O)[C@H](O)[C@@H](O)CN1CCCCCOCC12CC3CC(CC(C3)C1)C2 | GBA3 | enzyme activity, inhibitor | – | – | 66100
CNC(=O)C1CCN(c2cc(C)c(F)cc2NC(=O)c2ccc(-c3cc(O)ccc3C)c(C)c2)CC1 | Tyrosine-protein kinase TXK (TXK, Homo sapiens, UniProt P42681) | cell-free assay, TR-FRET | – | – | 17.8
C[C@H](CCC(=O)N[C@@H](CCC(=O)Nc1cccc(O)c1)C(=O)O)[C@H]1CC[C@H]2[C@@H]3[C@H](O)C[C@@H]4C[C@H](O)CC[C@]4(C)[C@H]3CC[C@]12C | SLC10A2 | taurocholate uptake, inhibitor | ASBT-MDCK | 10 min, together with: taurocholate 2.5 µM | 2430

Structure (SMILES) | target | assay | system | setting | Ki [nM]
O=c1[nH]cnc2c(CN[C@H](CO)CC(F)P(=O)(O)O)c[nH]c12 (stereo partly shown) | Hypoxanthine-guanine phosphoribosyltransferase | – | – | – | 26 ± 2
COC(=O)[C@H](CCCCNCCCCN(O)C(=O)/C=C/C(=O)O)NC(=O)OCc1ccccc1 | Lysine-specific demethylase 2A (KDM2A, Homo sapiens, UniProt Q9Y2K7) | ligand displacement, FP | – | – | 370
CCCCCCOc1ccc(C(=O)OCCN2CC=CCC2)cc1 | CHRM3 | ligand displacement, radioligand | – | cell membranes | 5750
Clc1cc(CN2CCCCC2)ccc1OCCCN1CCN(c2cccc3sccc23)CC1 | Drd2 | cell-free assay, radioligand | – | – | 125
C/C(=N\OCCCN(C)Cc1ccccc1)c1ccc(C(F)(F)F)cc1 | Sigma non-opioid intracellular receptor 1 (Sigmar1, Rattus norvegicus, UniProt Q9R0C9) | binding | – | – | 15.6 ± 1.4
C=C1CCC(O)C(C)=CCC2C1CC2(C)C(=O)C=CC(C)(C)O (stereo not shown) | Pancreatic triacylglycerol lipase (PNLIP, Sus scrofa, UniProt P00591) | enzyme activity, inhibitor | – | – | 84200
O=Cc1ccc(-c2cn([C@@H]3O[C@H](COP(=O)(O)OP(=O)(O)O[C@H]4O[C@H](CO)[C@H](O)[C@H](O)[C@H]4O)[C@@H](O)[C@H]3O)c(=O)[nH]c2=O)s1 | Histo-blood group ABO system transferase (ABO, Homo sapiens, UniProt P16442, G235S/G268A/L266M/R176G) | enzyme activity, inhibitor | – | – | 2400
NC1CN(CCCCC2CCN(CC(=O)N3c4ccccc4NC(=O)c4ccccc43)CC2)CCN(CC(=O)N2CCC(N3CCC(n4c(=O)[nH]c5ccccc54)CC3)CC2)C1 (stereo not shown) | CHRM3 | ligand displacement, radioligand | – | – | 58.9
Cc1ccc(NC(=O)CCC(NC(=O)CCC(C)C2CCC3C4C(O)CC5CC(O)CCC5(C)C4CCC23C)C(=O)O)c(C)n1 (stereo not shown) | SLC10A2 | taurocholate uptake, inhibitor | ASBT-MDCK | 10 min, together with: taurocholate 2.5 µM | 1910
Cc1cc2nc3n(c2cc1C)C(C)(C)NC(N)=N3 | Bifunctional dihydrofolate reductase-thymidylate synthase, DHFR domain (Trypanosoma cruzi, UniProt Q27793) | enzyme activity, competitive inhibitor | – | together with: dihydrofolate 60 µM, NADPH 100 µM | 1380
CCC(=O)NCc1cc(C(=O)NCCN2CCN(CCCCC3CCN(CC(=O)N4c5ccccc5NC(=O)c5ccccc54)CC3)CC2)cc(C(=O)NCCN2CCN(CCOC(=O)C3c4ccccc4Oc4ccccc43)CC2)c1 | CHRM1 | ligand displacement, radioligand | – | – | 3.09
CC(=O)NCC(=O)N[C@@H](CCC(=O)O)C(=O)N[C@@H](CO)C(=O)N1CCC[C@H]1C(=O)N[C@H](C=O)CC(=O)O | CASP3 | enzyme activity, inhibitor, fluorescence | – | pH 7 | 186
CN1CCC=C(c2nsnc2OCCCCCNC(=O)CCCCCCCCC(=O)NCCCCCOc2nsnc2C2=CCCN(C)C2)C1 | CHRM1 | ligand displacement, radioligand | – | – | 3.89
C=C1C(=O)O[C@@H]2[C@H]3C(CO)=CC(=O)C3=C(C)C[C@H](O)[C@@H]12 | Alpha-glucosidase MAL12 (MAL12, Saccharomyces cerevisiae S288c, UniProt P53341) | enzyme activity, inhibitor | – | – | 87600
O=C(NCc1ccc(OP(=O)(O)O)c(OP(=O)(O)O)c1)OCC1c2ccccc2-c2ccccc21 | Signal transducer and activator of transcription 5A, SH2 (Homo sapiens, UniProt P42229) | ligand displacement, FP | – | – | 11000
O=C1Nc2ccccc2N(C(=O)CN2CCC(CCCCN3CCC(N4CCC(n5c(=O)[nH]c6ccccc65)CC4)CC3)CC2)c2ccccc21 | CHRM3 | ligand displacement, radioligand | – | – | 97.7
Nc1nc2c(CNCCCP(=O)(O)O)c[nH]c2c(=O)[nH]1 | Hypoxanthine-guanine phosphoribosyltransferase | – | – | – | 3630 ± 320
O=C1Nc2ccccc2N(C(=O)CN2CCC(CCCCN3CCN(CCCCOC(=O)C4c5ccccc5Oc5ccccc54)CC3)CC2)c2ccccc21 | CHRM3 | ligand displacement, radioligand | – | – | 97.7
CCCCCCOc1ccc(C(=O)OCC[N+]2(C)CC=CCC2)cc1 (stereo not shown) | CHRM3 | ligand displacement, radioligand | – | cell membranes | 417
C=C=C(CN1CCCC(C(=O)O)C1)C(c1ccc(OC)cc1)(c1ccc(OC)cc1)c1ccc(OC)cc1 (stereo not shown) | Sodium- and chloride-dependent glycine transporter 1 (SLC6A9, Homo sapiens, UniProt P48067) | cell-free assay, mass spectrometry | – | – | 141
COc1ccc(-c2nc(CSc3nc(N)c(C#N)c(-c4ccc5c(c4)OCO5)c3C#N)cs2)cc1 | Adenosine receptor A1 (ADORA1, Homo sapiens, UniProt P30542) | ligand displacement, radioligand | – | cell membranes | 1.6

A few entries again:
Structure (SMILES) | target | assay | system | setting | Ki [nM]
CNC(=O)c1ccc(-c2cccc3c2OC(CN)C3)cc1 (stereo not shown) | Beta-2 adrenergic receptor (ADRB2, Homo sapiens, UniProt P07550) | binding, fluorescent ligand displacement | SNAP-tagged receptor HEK membranes | together with: 50 nM propranolol-green | 1260
O=C(OC1CCN(CCOCCOCCN2CCC(OC(=O)C(c3ccccc3)c3ccccc3)CC2)CC1)C(c1ccccc1)c1ccccc1 | CHRM1 | ligand displacement, radioligand | – | – | 257
